# Measurements pooled from the literature.
# Each line is one published result; not all experiments were run side by side.
# Organism: Pseudomonas aeruginosa
SMILES,test,system,setting,MIC
CC[C@H]1OC(=O)[C@H](C)[C@@H](OC(=O)Cc2cccc3ccccc23)[C@H](C)[C@@H](O[C@@H]2O[C@H](C)C[C@H](N(C)C)[C@H]2O)[C@](C)(OC)C[C@@H](C)C(=O)[C@H](C)[C@@H](O)[C@]1(C)O,,"PAO397, five efflux pumps deleted",,> 32 µg/mL
CCCCCCCCCCCCCCCCCCn1cc(CN(CCC(=O)NCCN(CCC(=O)NCCN(CCC(=O)NCCN(C)C)CCC(=O)NCCN(C)C)CCC(=O)NCCN(CCC(=O)NCCN(C)C)CCC(=O)NCCN(C)C)CCC(=O)NCCN(CCC(=O)NCCN(CCC(=O)NCCN(C)C)CCC(=O)NCCN(C)C)CCC(=O)NCCN(CCC(=O)NCCN(C)C)CCC(=O)NCCN(C)C)nn1,,"PAK, LB broth",18 h,> 96 µg/mL
CCCCCCCCCCn1cc[n+](CCCCOc2cc(OCCCC[n+]3ccn(CCCCCCCCCC)c3)cc(OCCCC[n+]3ccn(CCCCCCCCCC)c3)c2)c1.[Br-].[Br-].[Br-],,PAO1,,2 µM
COc1cc(C(=O)Nc2ccc(C(=O)O)cc2)ccc1NC(=O)c1ccc(NC(=O)[C@H](Cc2c[nH]nn2)NC(=O)c2ccc(NC(=O)/C(C)=C/c3ccc(O)cc3)cc2)cc1,broth microdilution,ciprofloxacin-sensitive,,32 µg/mL
CCn1cc(C(=O)O)c(=O)c2cc(F)c(N3CCNCC3)cc21,broth microdilution,phenazine non-producing,,0.06 µg/mL
COc1ccc2ccc(O)c(/C=N/[C@H]3CCCC[C@H]3/N=C/c3c(C)cccc3O)c2c1,"microbial growth, broth dilution",,,> 40 µM
CCCCCC(=O)Oc1c(C)c(OC)c2c(/C=C/c3ccccc3)c(CCCC)c(=O)oc2c1C,"microbial growth, broth dilution",ATCC27853,,5000 µg/mL
CC(C)(O/N=C(\C(=O)N[C@@H]1C(=O)N(OS(=O)(=O)O)C1(C)C)c1nsc(N)n1)C(=O)O,agar dilution,ATCC 27853,,> 64 µg/mL
COc1c(NC(=O)c2ccc(NC(=O)[C@H](Cc3c[nH]nn3)NC(=O)c3ccc(NC(=O)/C(C)=C/c4ccc(O)cc4)cc3)cc2)ccc(C(=O)Nc2ccc(C(=O)O)c(O)c2)c1O,broth microdilution,ciprofloxacin-resistant,,32 µg/mL
CCCCCC(=O)Oc1c(C)c(OC)c2c(c1C)OC(=O)[C@@H](CCCC)[C@]2(O)/C=C/c1ccccc1 (relative stereo),"microbial growth, broth dilution",ATCC27853,,5000 µg/mL
CC1(C)C(NC(=O)C(=NOC2(C(=O)O)CC2)c2csc(N)n2)C(=O)N1OS(=O)(=O)O (stereo not drawn),agar dilution,ATCC 27853,,8 µg/mL
O=[N+]([O-])c1cc(Cl)c2cccnc2c1O,"microbial growth, broth dilution",ATCC27853,,16 µg/mL
CC(C)C[C@@H]1NC(=O)[C@@H](CC(C)C)NC(=O)[C@H](CCN)NC(=O)[C@@H](NC(=O)[C@H](CCN)NC(=O)[C@@H](N)[C@@H](C)O)CCNC(=O)[C@H]([C@@H](C)O)NC(=O)[C@H](CCN)NC(=O)[C@H](CCN)NC1=O,broth microdilution,"ATCC 10145, cation-adjusted Mueller-Hinton broth","18 to 20 h, 37 °C, 0.002% polysorbate 80",> 128 µg/mL
COc1cccc(OC)c1C(=O)N[C@@H]1C(=O)N2[C@@H]1SC(C)(C)[C@@H]2C(=O)O,"microbial growth, broth dilution",27853,,> 128 µM
O=C(O)c1cn(C2CC2)c2cc(N3CCNCC3)c(F)cc2c1=O,"microbial growth, broth dilution",PAO1,,0.06 µg/mL
COc1ccc2ccc(O)c(/C=N/[C@H]3CCCC[C@H]3/N=C/c3c(O)cccc3OC)c2c1,"microbial growth, broth dilution",,clinical isolate,> 40 µM
COc1cc(C(=O)O)ccc1NC(=O)c1ccc(NC(=O)c2ccc(NC(=O)[C@H](Cc3c[nH]nn3)NC(=O)c3ccc(NC(=O)/C(C)=C/c4ccc(O)cc4)cc3)cc2)cc1O,broth microdilution,ciprofloxacin-sensitive,,32 µg/mL
COc1ccc2ccc(O)c(/C=N/[C@H]3CCCC[C@H]3/N=C/c3ccc(C)cc3O)c2c1,"microbial growth, broth dilution",,,> 40 µM
CN[C@H](CC(C)C)C(=O)N[C@H]1C(=O)N[C@@H](CC(N)=O)C(=O)N[C@H]2C(=O)N[C@H]3C(=O)N[C@H](C(=O)N[C@H](C(=O)NCc4cn(CCCCC(=O)N[C@H](C(=O)N[C@@H](CCN)C(=O)N[C@H]5CCNC(=O)[C@H]([C@@H](C)O)NC(=O)[C@H](CCN)NC(=O)[C@H](CCN)NC(=O)[C@H](CC(C)C)NC(=O)[C@@H](CC(C)C)NC(=O)[C@H](CCN)NC5=O)[C@@H](C)O)nn4)c4cc(O)cc(O)c4-c4cc3ccc4O)[C@H](O)c3ccc(c(Cl)c3)Oc3cc2cc(c3O[C@@H]2O[C@H](CO)[C@@H](O)[C@H](O)[C@H]2O[C@H]2C[C@](C)(N)[C@H](O)[C@H](C)O2)Oc2ccc(cc2Cl)[C@H]1O,broth microdilution,"ATCC 27853, cation-adjusted Mueller-Hinton broth","18 to 20 h, 37 °C, 0.002% polysorbate 80",32 µg/mL
CC[C@H]1OC(=O)[C@H](C)[C@@H](OC(=O)Cc2c(F)cccc2F)[C@H](C)[C@@H](O[C@@H]2O[C@H](C)C[C@H](N(C)C)[C@H]2O)[C@](C)(OC)C[C@@H](C)C(=O)[C@H](C)[C@@H](O)[C@]1(C)O,,DSM 50071,compound alone,> 128 µM
CC1(C)[C@H](NC(=O)/C(=N\OC2(C(=O)O)CC2)c2nsc(N)n2)C(=O)N1OS(=O)(=O)O,agar dilution,ATCC 27853,,16 µg/mL
CC[C@H]1OC(=O)[C@H](C)[C@@H](OC(=O)Cc2ccccc2[N+](=O)[O-])[C@H](C)[C@@H](O[C@@H]2O[C@H](C)C[C@H](N(C)C)[C@H]2O)[C@](C)(OC)C[C@@H](C)C(=O)[C@H](C)[C@@H](O)[C@]1(C)O,microbial growth,ATCC27853,,> 32 µg/mL
CCCCCC[N+](C)(C)CCCCCCOc1cc(OCCCCCC[N+](C)(C)CCCCCC)cc(OCCCCCC[N+](C)(C)CCCCCC)c1.[Br-].[Br-].[Br-],,PAO1,,32 µM
CC1(C)[C@H](NC(=O)/C(=N\OCc2c(Cl)cccc2Cl)c2csc(N)n2)C(=O)N1OS(=O)(=O)O,agar dilution,ATCC 27853,,> 64 µg/mL
